Measurements gathered from unrelated publications.
A part holds a random share of what one study measured. Positions count from the first letter of the parent shown.

Block 1
Target: Hepatocyte nuclear factor 3-alpha (Foxa1, Mus musculus, UniProt P35582, residues 1-468, full length assumed)
Method: EMSA with sequencing
Form: double-stranded DNA, one strand shown
Sample: in vitro
Tested at: 10 and 20 nM
Setting: whole designed probe, mean of two concentrations, ends assumed
Relative to: negative control set to 0
Direction: higher = stronger binding
Construct (chain): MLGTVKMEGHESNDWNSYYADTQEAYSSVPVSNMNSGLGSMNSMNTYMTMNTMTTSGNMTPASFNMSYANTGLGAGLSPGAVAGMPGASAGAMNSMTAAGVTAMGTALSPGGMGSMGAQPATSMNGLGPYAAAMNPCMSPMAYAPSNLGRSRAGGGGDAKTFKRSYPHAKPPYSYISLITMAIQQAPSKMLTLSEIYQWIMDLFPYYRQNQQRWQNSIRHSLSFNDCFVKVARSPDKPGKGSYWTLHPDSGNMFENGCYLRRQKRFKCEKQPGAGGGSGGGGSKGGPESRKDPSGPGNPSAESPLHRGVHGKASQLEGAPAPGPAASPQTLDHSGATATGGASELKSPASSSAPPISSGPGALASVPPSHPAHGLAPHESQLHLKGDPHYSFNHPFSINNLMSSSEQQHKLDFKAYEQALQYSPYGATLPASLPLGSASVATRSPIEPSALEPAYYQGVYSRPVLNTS
Oligonucleotide	normalised bound fraction [ratio]
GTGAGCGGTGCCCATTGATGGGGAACTTCCAAATACTCTTTTGAATTGAAAATGGTGAGAAGCGTAAATTATATGACACTGGAAACGTCTTTCCTATTTCATTTACGATCAAGAACTACAGATTGCATTTGTATTATGTAGCTACTGTAGAAATTGACCAAATGTTGACAGACAAAAGGCACATGCACCCTGACAAGAGCCAAAACAATCTGGAAGGAATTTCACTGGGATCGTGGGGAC	0.0043
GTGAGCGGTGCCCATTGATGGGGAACAAGCCCCACGCACTGTCCGTGGGCGTCTCTGGCCTCCCGGACTTGTATCACAGACCCCAGCCCAAGAGACACAGGCAGAGGAAATGCTCAGTGTAAACATGGGAATGGGAGGGTGGCCCTGCCCTGTGGCCCGGCCTGCCCTGACCTGCAACCATGCACAGTAGCCAGGTGCCACGTAGGGCCCAATGTCTGCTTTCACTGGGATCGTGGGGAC	0.292
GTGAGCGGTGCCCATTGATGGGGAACATCTTCCCCCTCTTCCTTGCCCCACCAGCTCACCTTCCCGGGTTATTTGCAGATAGGAAAATAAATAAAGCCGGCATTCGTTAACCCTCTTCACGCGCATACTGCTGTTTGCTCTGGATCTAACATGGTCCTTTGGCGACGCCAGGCTCCGGGAGAGCAAAGCACCGTGTCAGGGCCATGATCCGGGCTCGCCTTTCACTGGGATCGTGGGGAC	0.345
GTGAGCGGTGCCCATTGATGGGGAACATCTTCCCCCTCTTCCTTGCCCCACCAGCTCACCTTCCCGGGTATCTGCAAATAAGTATTTATTTTCAAGCCGGCATTCGTTAACCCTCTTCTGGCGCAAACTGCCAAAGTAAACAGATCTAACATGGTCCTTTGGCGACGCCAGGCTCCGGGAGAGCAAAGCACCGTGTCAGGGCCATGATCCGGGGTGGCCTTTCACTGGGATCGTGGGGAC	0.445
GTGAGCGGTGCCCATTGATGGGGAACCCTAGGACCATCTTCTACTTATGAGAGTGAACTTCACTGTATGTCACCAATTCCGTACCTTGTCTATTGTTTAATAGTCGAGATACTGTCAAAGTAATCTAATGCTGCCACCTTGTGGACTGAAGGGTATGGTCTTAACTCCAAATAAGCAAAGGAAGAAAAATACGTTTCTGGTTCGGCCTTTTCTCTCAGATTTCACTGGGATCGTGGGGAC	0.0535
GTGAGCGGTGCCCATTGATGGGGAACCATTAGAGTCAAAGTTGTTAAGGGGAGCTAGTCATAGCTACCACGTGGCCAGGCATGTGGAACCAGATGAATCATCAACACCAGGCACACATCTATTTACTTTAAATAATGCTGACAACCTAGTTCATAGTGACACACTACTTGAGATATATAGAATAACATTATTACCCAGTAAGTATGTGAACATTCCGATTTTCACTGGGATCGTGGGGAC	0.383
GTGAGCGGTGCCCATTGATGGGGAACTGGTTTTAAAGACTAACAGGATAATGGCGTTTCTTGTTTAGCGGCATAAATTGTGAATGTGTTCCATTAAATTTCCATATGGCATCATGACAATGTAAACACAGACCATCAAGAAGGTCCATAGACTGGCCACTGAGAGAACTCTGGGGGCCCATTGTGATGCTCTCTGGCTAGTCCATCGGGGTCTACATGATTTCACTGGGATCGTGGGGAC	0.4
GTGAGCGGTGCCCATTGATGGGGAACCACATGTCAGTAATAGTGCTGTATTACTGACCTAGAAATTTAATTGTTCCGTGCTCTTAAGGTTTCAGTATTAAATGTGGAAATTATTTAAGAGCAATCTAATTGATATTACTGCAGCTTCATAAAGAAGAATATCAAACTGTGGTCTCTGTTTTTTGTCTTTCAAAGCAAGAAGTGGTGGAGAAATATGAAATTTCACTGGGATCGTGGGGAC	0.125

Block 2
Target: Eukaryotic initiation factor 4A-I (EIF4A1, Homo sapiens, UniProt P60842, residues 1-406, full length assumed)
Sequence of UniProt P60842 (whole entry, looked up): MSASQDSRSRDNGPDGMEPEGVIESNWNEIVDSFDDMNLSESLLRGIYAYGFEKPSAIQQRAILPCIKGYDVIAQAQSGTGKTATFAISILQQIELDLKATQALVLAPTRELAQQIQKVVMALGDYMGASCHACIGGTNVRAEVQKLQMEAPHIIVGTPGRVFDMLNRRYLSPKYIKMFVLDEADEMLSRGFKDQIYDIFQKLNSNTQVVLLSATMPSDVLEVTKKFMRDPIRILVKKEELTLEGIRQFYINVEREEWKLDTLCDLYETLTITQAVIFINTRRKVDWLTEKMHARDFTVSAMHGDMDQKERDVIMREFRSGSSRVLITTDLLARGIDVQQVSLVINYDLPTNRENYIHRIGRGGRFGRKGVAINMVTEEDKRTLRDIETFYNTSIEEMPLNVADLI
Method: RNA Bind-n-Seq
Form: RNA
Sample: in vitro
Tested at: 15 pmol
Setting: 4-mer, random 30-nt RNA, single round
With: DMSO vehicle, 2 mM AMP-PNP
Relative to: input library
Direction: higher = stronger binding
Oligonucleotide	4-mer enrichment [fold]
GUAU	0.721
CUGA	1.61
UACC	1.41
GGCA	1.01
AAUG	1.05
CUUG	1.09
UUGG	0.961
AUGG	0.889

Single results of other studies
RTCB: RTCB (Homo sapiens, UniProt Q9Y3I0)
P1: viral docking peptide; KGVKRKLFAEDSS; partner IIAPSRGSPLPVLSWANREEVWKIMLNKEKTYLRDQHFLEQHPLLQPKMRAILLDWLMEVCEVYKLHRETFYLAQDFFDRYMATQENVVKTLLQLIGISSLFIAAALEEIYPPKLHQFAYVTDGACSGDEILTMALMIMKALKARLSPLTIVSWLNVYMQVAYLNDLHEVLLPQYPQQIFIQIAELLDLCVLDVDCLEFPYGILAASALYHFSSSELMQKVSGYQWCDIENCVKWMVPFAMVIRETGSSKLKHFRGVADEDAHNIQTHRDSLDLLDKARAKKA
Molecule	target or system	test	system	conditions	scale	endpoint	result
XRCC6 (Homo sapiens, UniProt P12956)	XRCC5 (Homo sapiens, UniProt P13010)	cross-linking MS	cell fractions	with: DHSO	–	cross-linked residues	E450 to E371
P1 S12Q	CCNE1, cyclin fold, Cln2 fusion (human)	yeast growth competition, sequencing	yeast	strong parent motif	relative to: not given, higher = stronger binding	normalised enrichment score	6.75
RTRAF (Homo sapiens, UniProt Q9Y224)	RTCB	cross-linking MS	–	hits only	–	interaction screen	cross-linked
HSPA4 (Homo sapiens, UniProt P34932)	ADAMTS1 (Homo sapiens, UniProt Q9UHI8)	cross-linking MS	cell fractions	with: DHSO	–	cross-linked residues	E308 to E585
DDX1 (Homo sapiens, UniProt Q92499)	RTCB	cross-linking MS	–	hits only	–	interaction screen	cross-linked
